{"data": "Results pooled from the literature", "note": "Protocols differ between the studies behind these lines. Several values in a cell are separate wells, animals, samples, runs or records. ± marks the error that the study gave."}
{"SMILES": "CC[C@H](C)[C@H](NC(=O)[C@H](CCC(=O)O)NC(=O)[C@H](CCCNC(=N)N)NC(=O)[C@H](CCCNC(=N)N)NC(=O)[C@H](CCCNC(=N)N)NC(=O)[C@H](CCC(N)=O)NC(=O)[C@H](CCCNC(=N)N)NC(=O)[C@H](CCCNC(=N)N)NC(=O)[C@H](CCCCN)NC(=O)[C@H](CCCCN)NC(=O)[C@H](CCCNC(=N)N)NC(=O)CNC(=O)[C@H](Cc1ccc(O)cc1)NC(C)=O)C(=O)N[C@@H](CC(=O)O)C(=O)N[C@@H](Cc1c[nH]cn1)C(=O)N[C@@H](CC(=O)O)C(N)=O", "assay": "electron microscopy", "system": "db/db mouse, hippocampal CA1", "setting": "intravenous, dose not given, weekly", "quantity": "postsynaptic density thickness", "result": "decreased"}
{"SMILES": "C=CC(=O)N[C@H]1C=C(C)c2c(-c3cnc4ccccc4c3)c3c(N)ncnc3n2C1", "system": "mice, NCI-H2073 vs LXF 2478 xenografts", "setting": "highest clinically relevant dose, unit not given", "how to read": "relative to: NCI-H2073 minus LXF 2478", "quantity": "growth rate difference", "result": 0.0127}
{"SMILES": "Cc1cn([C@H]2O[C@@H](CO[P@@](=O)(N[C@@H](C)C(=O)OC(C)C)Oc3ccccc3)[C@H](O)[C@H]2F)c(=O)[nH]c1=O", "system": "adults with chronic hepatitis B", "setting": "50 mg, day 28", "how to read": "relative to: baseline", "quantity": "change in HBV DNA", "result": "2.75 log10 IU/mL"}
{"SMILES": "COc1cc(C(=O)NS(=O)(=O)c2ccccc2C)ccc1Cc1cn(C)c2ccc(NC(=O)OC3CCCC3)cc12", "assay": "platelet aggregation", "system": "human platelet-rich plasma", "setting": "20 µM, 180 s, added: collagen", "how to read": "relative to: DMSO", "quantity": "inhibition", "result": "7%"}
{"SMILES": "Cc1cccc(C)c1NC(=O)C1CCCCN1 (centres unmarked)", "system": "Sprague-Dawley rat, male", "setting": "intrathecal, 30 mM, 10 min", "quantity": "motor block", "result": "12 ± 7.8 % MPE"}
{"SMILES": "Cn1ncc(-c2nc(N[C@H]3CC[C@H](N)CC3)ncc2Cl)c1CC1CC1", "assay": "phase I clinical trial", "system": "R/R AML or high-risk MDS patients, RUNX1-mutated", "setting": "dose not given", "quantity": "CR/CRi rate", "result": "23%"}
{"SMILES": "Cc1cn(-c2cc(NC(=O)c3ccc(C)c(Nc4nccc(-c5cccnc5)n4)c3)cc(C(F)(F)F)c2)cn1", "system": "human patients", "setting": "dose not given, 12 months from baseline, caregiver distress", "how to read": "relative to: placebo, direction not given", "quantity": "difference in mean NPI score", "result": -1}
{"SMILES": "C[C@H]1O[C@@H](O[C@H]2CC[C@@]3(C)[C@@H](CC[C@]4(C)[C@@H]3C=C[C@]35OC[C@@]6(CCC(C)(C)C[C@H]63)[C@@H](O)C[C@]54C)[C@]2(C)CO)[C@H](O)[C@@H](O[C@@H]2O[C@H](CO)[C@@H](O)[C@H](O)[C@H]2O)[C@H]1O", "system": "mouse, no ethanol, hepatic SIRT1 knockdown, liver", "setting": "dose not given, high dose", "quantity": "NAD+/NADH ratio", "result": "3.12 and 3.08 and 3.24 and 3.17"}
{"SMILES": "Cc1cnc(NC(=O)Nc2cc(Br)c(C)cc2OC[C@@H]2CNCCO2)cn1", "tested on": "human coronavirus OC43", "assay": "virus-induced cell killing", "system": "MRC-5", "setting": "maximum over 10 doses", "quantity": "maximum inhibition", "result": "0.89%"}
{"SMILES": "O=S(=O)(O)C(F)(F)C(F)(F)C(F)(F)C(F)(F)C(F)(F)C(F)(F)C(F)(F)C(F)(F)C(F)(F)C(F)(F)F", "assay": "RNA-seq pathway analysis, measured: cholesterol biosynthesis genes", "system": "liver spheroids", "setting": "concentration not given, 24 h and 10 d", "quantity": "gene expression", "result": "decreased"}
{"SMILES": "CCCCCOc1ccc(-c2ccc(-c3ccc(C(=O)N[C@H]4C[C@@H](O)[C@@H](O)NC(=O)[C@@H]5[C@@H](O)[C@@H](C)CN5C(=O)[C@H]([C@@H](C)O)NC(=O)[C@H]([C@H](O)[C@@H](O)c5ccc(O)cc5)NC(=O)[C@@H]5C[C@@H](O)CN5C(=O)[C@H]([C@@H](C)O)NC4=O)cc3)cc2)cc1", "assay": "calcein leakage", "system": "DOPC/CHOL liposomes", "setting": "concentration not given, added: 20 wt% PEG-8000", "quantity": "fusion time constant", "result": "3 ± 1 min"}
{"SMILES": "C[C@]1(CO)Cc2ncn(-c3ccc(C#N)c(Cl)c3)c2C(=O)O1", "assay": "aldosterone synthesis, inhibitor, measured: potassium", "system": "healthy Japanese adults, urine", "setting": "40 mg, 0-24 h at steady state, multiple rising dose", "quantity": "urinary excretion", "result": "33.9 mmol"}
{"SMILES": "CC(C)CCCCCCCCC[C@@H]1CC(=O)N[C@@H](CCC(=O)O)C(=O)N[C@@H](CC(C)C)C(=O)N[C@H](CC(C)C)C(=O)N[C@@H](C(C)C)C(=O)N[C@@H](CC(=O)O)C(=O)N[C@H](CC(C)C)C(=O)N[C@@H](CC(C)C)C(=O)O1", "assay": "calcein leakage", "system": "DOPC/CHOL liposomes", "setting": "concentration not given, added: 20 wt% PEG-8000", "quantity": "fusion time constant", "result": "16 ± 1 min"}
{"SMILES": "O=C(O)/C=C/C(=O)O.Oc1cccc2[nH]cc(CCNCc3ccccc3)c12", "system": "C57BL/6J mice", "setting": "subcutaneous, 0.03 mg/kg", "how to read": "relative to: pre-session baseline", "quantity": "body temperature change", "result": "0.2 ± 0.2 °C"}
{"SMILES": "CN1CCN(S(=O)(=O)c2cc([N+](=O)[O-])ccc2N(CCOS(C)(=O)=O)CCOS(C)(=O)=O)CC1", "system": "NSG mice, sample CE PDX", "setting": "intraperitoneal, 25 mg/kg weekly x3", "quantity": "event-free survival", "result": "> 84 days"}
{"SMILES": "S=C(NC1CCCCC1)N1CCC(c2cnc[nH]2)CC1", "assay": "antinociception, hot plate test", "system": "rat", "setting": "intracerebroventricular, 5 min", "quantity": "ED50", "result": "> 1700 nmol"}
{"SMILES": "CC(=O)c1c(C)c2cnc(Nc3ccc(C4CCN(CCS(C)(=O)=O)CC4)cn3)nc2n(C2CCCC2)c1=O", "system": "mouse MDA-MB-435S xenograft, tumour", "setting": "oral, 100 mg/kg single dose", "quantity": "time to peak pRb inhibition", "result": "30 min"}
{"SMILES": "CC[C@H](C)[C@@H]1NC(=O)[C@@H]2CCCN2C(=O)[C@H](CC(C)C)NC(=O)[C@H](CC(C)C)NC(=O)CNC(=O)[C@@H](NC(=O)[C@@H](NC(=O)[C@H](CC(=O)O)NC(=O)CNC(=O)[C@@H](NC(=O)[C@H](C)NC(=O)CNC(=O)[C@H](CCCCN)NC(=O)[C@H](CC(C)C)NC(=O)[C@H](CC(C)C)NC(=O)[C@H](CCCCN)NC(=O)CNC(=O)[C@@H](NC(=O)[C@@H](N)CC(C)C)C(C)C)C(C)C)C(C)C)CSSC[C@@H](C(=O)O)NC1=O", "assay": "RNA-seq, measured: Maff mRNA", "system": "mouse traumatic brain injury, frontal cortex and hippocampus", "setting": "dose not given", "how to read": "relative to: TBI plus compound vs TBI", "quantity": "log2 fold change", "result": -1.98}
{"SMILES": "COc1ccc(CCC2CCCC(CCc3ccc(OC)cc3)N2C[C@@H](O)CO)cc1.Cl (stereo in doubt)", "assay": "methamphetamine-evoked dopamine release", "system": "rat striatal slices", "setting": "1 to 100 µM, added: methamphetamine 5 µM", "quantity": "inhibition", "result": "inhibited"}
{"SMILES": "C=CC(=O)Nc1cc(Nc2ncc(Cl)c(Nc3ccccc3C(=O)C(=O)N(C)C)n2)c(OC)cc1N1CCN(C)CC1", "assay": "RECIST v1.1 best response", "system": "human EGFR T790M NSCLC", "setting": "oral, 200 mg/day, per-protocol set", "quantity": "patients with stable disease", "result": "16.7%"}
{"SMILES": "CN1CCN(c2ccc(OC(F)(F)F)c(Nc3ncc4c(n3)-c3c(c(C(N)=O)nn3CCO)CC4)c2)CC1", "tested on": "human coronavirus OC43", "assay": "virus-induced cell killing", "system": "MRC-5", "setting": "maximum over 10 doses", "quantity": "maximum inhibition", "result": "0%"}
{"SMILES": "Cc1nc(Nc2ccc(CC(=O)O)cc2)nc(Nc2ccc(F)c(C(F)(F)F)c2)c1C", "system": "C57BL/6J mouse, high-fat diet MASH model, liver", "setting": "intraperitoneal, 0.3 mg/kg daily, 60% fat diet for 12 weeks, dosed final four weeks", "how to read": "relative to: untreated", "quantity": "PPAR-gamma expression", "result": "no effect"}
{"SMILES": "CCCCC1(CCCC)CN(c2ccccc2)c2cc(SC)c(OCC(=O)N[C@@H](C(=O)NCC(=O)O)c3ccccc3)cc2S(=O)(=O)C1", "assay": "measured: LDL cholesterol", "system": "human, serum", "setting": "5 mg once daily, day 11", "quantity": "serum LDL-C", "result": "91.2 mg/dL"}
